Published values of several laboratories.
Every numbered part comes from another study and shows a few of its results, in no order.

Series 1
Target: Histone acetyltransferase KAT6A, winged helix 2, GST fusion (KAT6A, Homo sapiens, UniProt Q92794, residues 85-181)
Method: protein binding microarray
Form: double-stranded DNA, one strand shown
Matrix: in vitro
Concentration: not given
Setting: 8-mer, flanks averaged, mean of 2 arrays, mostly near background
Relative to: not given
Direction: higher = stronger binding
Residues (chain): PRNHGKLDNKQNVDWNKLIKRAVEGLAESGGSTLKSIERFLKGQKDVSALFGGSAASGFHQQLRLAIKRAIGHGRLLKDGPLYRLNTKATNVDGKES
Sequence | E-score
GCCATTAC | -0.094
ATGGCGAC | -0.0711
CAAGTCTG | -0.159
ATTTTCAC | 0.0102
CTTCTAAC | -0.163
AGTTACAA | 0.0259
GCTGCCCC | 0.143
GAACTAGC | -0.0728
CCAGATAG | -0.027
ACGATGGC | -0.0918

Series 2
Target: RNA binding protein fox-1 homolog 2, RRM domain, GST-SBP tag (RBFOX2, Homo sapiens, UniProt O43251-10, residues 100-194)
Method: RNA Bind-n-Seq
Form: RNA
Matrix: in vitro
Concentration: 365 nM
Setting: natural RNA segment, single round, ends assumed
Relative to: no-protein control
Direction: higher = stronger binding
Shared flanks, not repeated: GGGAGUUCUACAGUCCGACGAUC … UGGAAUUCUCGGGUGCCAA
Residues (chain): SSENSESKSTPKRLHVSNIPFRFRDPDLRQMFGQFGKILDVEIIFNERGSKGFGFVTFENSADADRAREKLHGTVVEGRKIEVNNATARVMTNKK
Sequence | RBNS enrichment (R)
AGCUAUUGUGGGUGACAGGAGCAGUGUUUUCCUGCUGGACCCGCAAGCCACCAGCUAUUUCCUGGUGACACAAGCUCUUCUCAGGCGGGGCUGCCUGCAGGCUCCCGUUU | 0.344
AUAAUGUUGGCAUUAUUUUUUAAUUUUUUAAAAAAUAAAUGGUAUCUUAUUUAAUUGUCCUGUUCCUUCCCACUCCCCGCCUCCUAGGAUGUUAGCCCAAGCUCAGGGUA | 0.311
CUGGGCAGGAAGAGUCCUCAGUCCCAAGACCAGGAGGGGGCAAUGGGCCCAGCCUUUCUGUGGUAUCUGAUGCAGGAAGGACUGCAGUGGAUCAGAACUUACAAACCAAA | 0.509
CUGCCCUAGUUAGGACAGACAUGCUUGUCUCUCCUAGGUAAAAGGUCAGGUCCCCGAGUCAUUUCUGUAGUGAAGAGCAGAGUUCCGUGUCUACACUGGCAACUAGGAAC | 0.334
AUGCUGACUGACAGGCAGAUCCUGAUAUAUCCAAAUUCGAAUUAAUACCAUUUGAAAUGGCAAGUCUUGGCUUAACGCCUGUUUGUAUGCCCAGCAUUCAGCUGUUUUAC | 0.448
CUGUGGAGUUUUAACAUUUUGUCCUCUUUUCAGUGAAACAGAGUAAAAAUAUUCAUCUACCAUUACUGUUAUUUGCUGAUUUUGUUUUAUUUUUUGAUGGUAAUAUUCUA | 1.15
AACCACCAAAAGGCCAGUGCCUCAACUCUUGAUUCUGAUGAGGUUUCUGGGAAGAGAUCAAAAUGGAGUCUCCUUACCAUGGACAAUACAUGCAAAGCAAUAUCUUGUUC | 0.324
UUUACAAAUCAUAAUCAACAGAGCCCCAGGGGCAAAAUAGACAUUCUAUUUGUCAGCUGUUGCUGCUGAGCCUGCUGGUGAACACCAUUGCAAGCAGUUGCUGAGCCUGC | 1.17

Series 3
Target: Interferon regulatory factor 5, full length, phosphomimetic (IRF5, Homo sapiens, UniProt Q13568-2, residues 1-514, K96S/S451D/S453D/S456D/S462D)
Method: protein-binding microarray
Form: double-stranded DNA, one strand shown
Matrix: in vitro
Concentration: 250 nM
Setting: 60-bp whole probe
With: salmon DNA 0.4 mg/ml
Relative to: random background probes
Direction: higher = stronger binding
Shared flanks, not repeated: GCCTAGCAC … GTCTTGATTCGCTTGACGCTGCTG
Sequence | log fluorescence [z-score]
TTAGTACTGAGTTTCGATTAGTGCTAG | 8.67
TTTTCCAGAGGCCCAGCCAGGTGCTAG | 0.139
TTTTCAGCATCGCTCAGCACGTGCTAG | 1.24
TTAGGTATCGGTTTCGGTTAGTGCTAG | 11.1
TTAGGACCGGGGTTTCGGTTAGTGCTA | 6.4
TTGCATCGTAAGCAAAAATGGTGCTAG | 1.07
GACGATCTCGGTCTCGAGACGTGCTAG | 0.0192
GACGGTATCGGGTTTCGTGACGTGCTA | 3.06
TCATGCATCTATCTTAAACTGTGCTAG | 0.457
TCAATTTTGTGTCTGGGACTGTGCTAG | 0.149

Further values, each from its own experiment
Substance | target | assay | system | setting | how to read | endpoint | result
PhoQ, residues 284 288 289 292 302 303 GASLAW | PhoP, residues 12 14 15 18 19 VQALL (Escherichia coli, UniProt P23836) | Sort-seq, measured: YFP reporter | E. coli | PhoQ-PhoP variant library, with: 10 µM Mg2+ | relative to: high Mg2+ state, higher = stronger signaling | fold induction | 9.04

Repeated from above (series 1):
Sequence | E-score
CCAGATAG | -0.027
CTTCTAAC | -0.163
ATTTTCAC | 0.0102
AGTTACAA | 0.0259
